Experimental data pooled from the literature.
Lines come from different studies, so protocols differ.
Organism: Staphylococcus aureus

SMILES	test	test system	conditions	MIC
O=c1n(CCNCCOS(=O)(=O)c2ccccc2)c(=O)n(S(=O)(=O)c2ccccc2)c(=O)n1S(=O)(=O)c1ccccc1	microbial growth, broth dilution	–	–	4 µg/mL
Cc1c(CN(C)C(=O)/C=C/c2cnc3c(c2)CC(N)C(=O)N3)oc2ccccc12 (stereo not shown)	broth microdilution	ATCC 29213	50% human serum	0.062 µg/mL
CCn1c(-c2ccc(F)cc2)c(-c2ccc(F)cc2)n(CCOC)c1=[Se]	microbial growth, broth dilution	ATCC700699 VISA	24 h, drug-resistant strain	> 40 µM
CC[C@H](C)[C@H](NC(=O)[C@@H](CCCNC(=N)N)NC(=O)[C@H](CCCNC(=N)N)NC(=O)[C@@H]1CCCN1C(=O)[C@@H]1CCCN1C(=O)[C@H](CCCNC(=N)N)NC(=O)[C@@H]1CCCN1C(=O)[C@H](CCCNC(=N)N)NC(=O)[C@@H]1CCCN1C(=O)[C@H](CC(C)C)NC(=O)[C@H](Cc1ccc(O)c([N+](=O)[O-])c1)NC(=O)[C@@H]1CCCN1C(=O)[C@@H]1CCCN1C(=O)[C@H](CCCCN)NC(=O)[C@H](CC(=O)O)NC(=O)[C@@H](N)C(C)C)C(=O)N[C@@H](Cc1ccc(O)cc1)C(=O)N[C@@H](CC(N)=O)C(=O)N[C@H](CCCNC(=N)N)C(N)=O	broth microdilution	DSM 6247	18 h, 37 °C, 25% MHB2	> 128 µg/mL
CC(C)CCCCCCCCC/C=C/C(=O)N[C@@H](CC(N)=O)C(=O)N[C@H]1CNC(=O)[C@@H]2CCCN2C(=O)[C@H](C(C)C)NC(=O)[C@@H](CN)NC(=O)CNC(=O)[C@H](CC(=O)O)NC(=O)CNC(=O)[C@H](CC(=O)O)NC(=O)[C@H](CC(=O)O)NC(=O)[C@H]2CCCCN2C1=O	broth microdilution	BR-VRSA strain 880, Mueller-Hinton broth, Mg2+ 10 mg/L	16 h, with: Ca2+ 10 mM	0.5 µg/mL
N=C(N)NCCC[C@@H]1NC(=O)[C@H](CCCNC(=N)N)NC(=O)[C@@H](CCCNC(=N)N)NC(=O)[C@H](C(c2ccccc2)c2ccccc2)NC(=O)[C@H](C(c2ccccc2)c2ccccc2)NC(=O)[C@H](C(c2ccccc2)c2ccccc2)NC(=O)[C@H](CCCNC(=N)N)NC1=O	–	1193193, MRSA	–	4 µg/mL
CC(C)[C@H](NC(=O)[C@H](CCCNC(=N)N)NC(=O)[C@H](Cc1ccccc1)NC(=O)[C@H](CS)NC(=O)[C@@H](N)Cc1c[nH]c2ccccc12)C(=O)N[C@@H](CS)C(=O)N[C@@H](Cc1ccccc1)C(=O)N[C@@H](CCCCN)C(=O)NCC(=O)N[C@@H](Cc1ccccc1)C(=O)N[C@@H](CS)C(=O)N[C@@H](Cc1ccc(O)cc1)C(=O)N[C@@H](CCCNC(=N)N)C(=O)N[C@@H](Cc1ccccc1)C(=O)N[C@@H](CS)C(=O)O	broth microdilution	ATCC 29213, Mueller-Hinton broth	16 to 20 h, 37 °C	141 µg/mL
Oc1c(Br)cc(Br)c2nc3cc(Cl)ccc3nc12	broth microdilution	MRSA-2	16 h, 37 °C	0.2 µM
CN[C@H](CC(C)C)C(=O)N[C@H]1C(=O)N[C@@H](CC(N)=O)C(=O)N[C@H]2C(=O)N[C@H]3C(=O)N[C@H](C(=O)N[C@H](C(=O)NCC(N)=O)c4cc(O)cc(O)c4-c4cc3ccc4O)[C@H](O)c3ccc(c(Cl)c3)Oc3cc2cc(c3O[C@@H]2O[C@H](CO)[C@@H](O)[C@H](O)[C@H]2O[C@H]2C[C@](C)(NCc3ccc(OCc4cn(CC(=O)N[C@H](C(=O)N[C@@H](CCN)C(=O)N[C@H]5CCNC(=O)[C@H]([C@@H](C)O)NC(=O)[C@H](CCN)NC(=O)[C@H](CCN)NC(=O)[C@H](CC(C)C)NC(=O)[C@@H](CC(C)C)NC(=O)[C@H](CCN)NC5=O)[C@@H](C)O)nn4)c(OC)c3)[C@H](O)[C@H](C)O2)Oc2ccc(cc2Cl)[C@H]1O	–	NRS402 VISA	–	3 µM
COc1ccc(O)c(/C=N/[C@@H]2CCCC[C@@H]2/N=C/c2c(O)ccc3ccc(OC)cc23)c1	bacterial growth, broth microdilution	vancomycin-intermediate	–	> 40 µM
CN[C@@H]1[C@H](O)[C@H](NC)[C@H]2O[C@]3(O)[C@H](O[C@@H]2[C@H]1O)O[C@H](C)C[C@H]3NC(=O)Cc1ccccn1	microbial growth, broth dilution	8325	–	50 µg/mL
CN[C@H](CC(C)C)C(=O)N[C@H]1C(=O)N[C@@H](CC(N)=O)C(=O)N[C@H]2C(=O)N[C@H]3C(=O)N[C@H](C(=O)N[C@H](C(=O)N[C@@H](CCCNC(=N)N)C(N)=O)c4cc(O)cc(O)c4-c4cc3ccc4O)[C@H](O)c3ccc(c(Cl)c3)Oc3cc2cc(c3O[C@@H]2O[C@H](CO)[C@@H](O)[C@H](O)[C@H]2O[C@H]2C[C@](C)(NCc3ccc(OCc4cn(CC(=O)N[C@H](C(=O)N[C@@H](CCN)C(=O)N[C@H]5CCNC(=O)[C@H]([C@@H](C)O)NC(=O)[C@H](CCN)NC(=O)[C@H](CCN)NC(=O)[C@H](CC(C)C)NC(=O)[C@@H](CC(C)C)NC(=O)[C@H](CCN)NC5=O)[C@@H](C)O)nn4)c(OC)c3)[C@H](O)[C@H](C)O2)Oc2ccc(cc2Cl)[C@H]1O	broth microdilution	VISA LIM-2, tryptic soy broth	20 to 24 h, 37 °C, 0.002% polysorbate 80	8 µg/mL
CC[C@H]1OC(=O)[C@H](C)[C@@H](OC(=O)Cc2ccccc2)[C@H](C)[C@@H](O[C@@H]2O[C@H](C)C[C@H](N(C)C)[C@H]2O)[C@](C)(OC)C[C@@H](C)C(=O)[C@H](C)[C@@H](O)[C@]1(C)O	–	BAA-977	–	8 µg/mL

Excerpt of the above:
SMILES	test	test system	conditions	MIC
CN[C@@H]1[C@H](O)[C@H](NC)[C@H]2O[C@]3(O)[C@H](O[C@@H]2[C@H]1O)O[C@H](C)C[C@H]3NC(=O)Cc1ccccn1	microbial growth, broth dilution	8325	–	50 µg/mL
